Assay results gathered from unrelated publications.
Values joined by “and” are separate records of one study, mostly repeats; a detail may differ. Numbers after ± are the reported error.
Target: Muscarinic acetylcholine receptor M3 (CHRM3, Homo sapiens, UniProt P20309)
Sequence of UniProt P20309 (whole entry, looked up): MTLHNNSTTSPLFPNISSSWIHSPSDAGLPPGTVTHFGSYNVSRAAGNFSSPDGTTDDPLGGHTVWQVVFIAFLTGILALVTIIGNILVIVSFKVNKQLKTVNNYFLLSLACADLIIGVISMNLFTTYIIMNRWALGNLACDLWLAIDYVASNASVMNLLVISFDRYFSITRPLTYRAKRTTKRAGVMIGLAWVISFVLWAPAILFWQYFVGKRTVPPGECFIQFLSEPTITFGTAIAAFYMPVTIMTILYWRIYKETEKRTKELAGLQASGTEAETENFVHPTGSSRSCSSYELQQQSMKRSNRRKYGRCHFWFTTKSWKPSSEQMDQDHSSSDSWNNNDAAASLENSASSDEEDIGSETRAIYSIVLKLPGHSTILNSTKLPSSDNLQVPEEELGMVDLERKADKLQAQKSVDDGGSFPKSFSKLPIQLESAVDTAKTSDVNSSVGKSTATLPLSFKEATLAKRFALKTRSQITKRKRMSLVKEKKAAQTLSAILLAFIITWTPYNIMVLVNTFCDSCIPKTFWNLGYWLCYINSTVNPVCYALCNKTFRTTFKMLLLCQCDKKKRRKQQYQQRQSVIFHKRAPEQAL

`CCCCCCOc1ccc(C(=O)OCCN2CC=CCC2)cc1` gave a basal binding of 0.92 ± 0.03 fold (membranes; 10 µM, 15 h, no carbachol; baseline: control).
With `C[Si]1(C[C@H](CN)CC(=O)O)CCCC1` the inhibition was 11% (ligand displacement, radioligand; 70 µM).
With `CCCCOc1ccc(C(=O)OCC[N+]2(C)CC=CCC2)cc1` (stereo not drawn) the Emax was 1.4 ± 0.1 fold (membranes; 1 µM, 15 h, with: carbachol; baseline: control).
`Cc1cccc(O[C@H]2CCC[C@@H](C(C)CNCc3ccncc3)C2)c1` (relative stereo) gave an inhibition of 72% (ligand displacement; 10 µM).
With `CCC(=O)N(C)c1ccc(Cl)c(Cl)c1` the inhibition was less than 10% (ligand displacement, radioligand; 10 µM).
For `C=CCn1c(=O)c2ccccc2n2c(SCC(=O)Nc3ccc(NC(C)=O)cc3)nnc12`, the maximal stimulation was less than 110% (agonist; 16 h, with: [3H]NMS).
`C[Si](C)(C)C[C@H](CN)CC(=O)O` gave an inhibition of 10% (ligand displacement, radioligand; 250 µM).
For `CCCCCCOc1ccc(C(=O)OCC[N+]2(C)CC=CCC2)cc1` (stereo not drawn), the Emax was 1.24 ± 0.08 fold (membranes; 100 µM, 15 h, with: carbachol; baseline: control).
`C=CCn1c(=O)c2ccccc2n2c(SC3CCOC3=O)nnc12` (stereo not drawn) has a maximal stimulation of 125 ± 9% (agonist; 16 h, with: [3H]NMS).
For `COc1ccc(C#CC2=C[C@H]3C[C@@]4(OC(=O)C=C24)[C@H]2CC[C@H](C(OC)OC)N32)cc1`, the inhibition was -3% (ligand displacement, radioligand; 10 µM).
With `Cc1[nH]nc2c1N=C(c1ccccc1Cl)c1cnc(N3CCOCC3)cc1N2` the inhibition was 9% (cell-free assay; 10 µM).
The Emax of `CCCCOc1ccc(C(=O)OCCN2CC=CCC2)cc1` is reported as 1.37 ± 0.08 fold (membranes; 1 µM, 15 h, with: carbachol; baseline: control).
For `COc1ncc2nc(C)n(Cc3ncc(S(N)(=O)=O)cc3F)c2c1-c1ccccc1`, the inhibition was -4.83% (antagonist, cell-based; 10 µM).
`O=C(CCNC(=O)CNC(=O)CC(c1ccccc1)(c1ccccc1)c1ccccc1)NC[C@@H]1CCCN(Cc2ccc3cc(F)ccc3c2)C1` gave a selectivity ratio of 11.1 ([3H]N-methylscopolamine binding; baseline: IC50 M2 over M3).
The inhibition of `Brc1ccccc1-c1nnc(CSc2nnnn2-c2ccccc2)o1` is reported as 13% (ligand displacement, radioligand; 10 µM).
With `O=C1c2sc(-c3ccc(N4CCC(F)C4)nc3F)nc2CCN1c1cccnc1` (stereo not drawn) the inhibition was -6% (ligand displacement, radioligand; 1 µM).
The maximal stimulation of `C=CCn1c(=O)c2ccccc2n2c(SCC(=O)OC)nnc12` is reported as 141 ± 16% (agonist; 16 h, with: [3H]NMS).
`O=C(CCNC(=O)CNC(=O)CC(c1ccccc1)(c1ccccc1)c1ccccc1)NC[C@@H]1CCCN(Cc2ccc(F)cc2)C1` has a selectivity ratio of 85 and > 45 ([3H]N-methylscopolamine binding; baseline: IC50 M2 over M3).
